# Published values gathered from unrelated publications.
# A part holds a random share of what one study measured.

# Study 1
# Target: Hepatocyte nuclear factor 3-alpha (Foxa1, Mus musculus, UniProt P35582, residues 1-468, full length assumed)
# Technique: EMSA with sequencing
# Molecule type: double-stranded DNA, one strand shown
# Matrix: in vitro
# Tested at: 10 and 20 nM
# Setting: whole designed probe, mean of two concentrations, ends assumed
# Reference: negative control set to 0
# Reading: higher = stronger binding
# Construct (chain): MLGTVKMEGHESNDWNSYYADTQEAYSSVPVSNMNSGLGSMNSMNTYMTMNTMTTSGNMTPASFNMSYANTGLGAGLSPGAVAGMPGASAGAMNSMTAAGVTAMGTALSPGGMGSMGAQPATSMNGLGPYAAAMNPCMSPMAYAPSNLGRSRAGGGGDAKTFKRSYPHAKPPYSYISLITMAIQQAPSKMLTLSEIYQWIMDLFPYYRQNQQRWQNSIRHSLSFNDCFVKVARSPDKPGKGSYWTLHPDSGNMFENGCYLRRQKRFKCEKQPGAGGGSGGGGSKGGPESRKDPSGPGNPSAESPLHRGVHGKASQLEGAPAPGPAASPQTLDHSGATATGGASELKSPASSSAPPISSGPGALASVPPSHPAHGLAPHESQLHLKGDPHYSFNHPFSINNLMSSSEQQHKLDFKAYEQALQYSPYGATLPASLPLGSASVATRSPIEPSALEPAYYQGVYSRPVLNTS
Strand,normalised bound fraction
GTGAGCGGTGCCCATTGATGGGGAACCCCATGTTAAGAGGCCAGGCAGACAGACCTAGGGCTGGATCTGCAGATAAGTCATCTACACTGGACCCTTGGCTTTGCTTTTAATTGGTTCAATATTTGCACAGTGACATCACACCTGCGCCTTACCTACTCAATAACAAGCTTTCTCTCAGTCACCCAGAAGAAACTGCAAAGAAAAGCAAATTGTTTCAGGTTTCACTGGGATCGTGGGGAC,0.426 ratio
GTGAGCGGTGCCCATTGATGGGGAACATCTTCCCCCTCTTCCTTGCCCCACCAGCTCACCTTCCCGGGTTATTTGCAGATAGGAAAATAAATAACGCCCTGATAGTATCCCATGCTTCTGGCGCAAACTGCTGTTTGCTCTGGATGAATCATGGTCCTTTGGCGACGCCAGGCTCCGGGAGAGCAAAGCACCGTGTCAGGGCCATGATCCGGGGTGGCCTTTCACTGGGATCGTGGGGAC,0.311 ratio
GTGAGCGGTGCCCATTGATGGGGAACTTCCTATCAGGCGAAGGCCGCCTTTCCTGGCCTCCCCCACAGGCCCGCCAGCGATTCGTCCTTACAAGGCTAGCCTCCACGGGCTGCCCTCTGTGTAATTTAAGCCACAGACTTCCGCCCACAGGTCGCCGCAGGTCCCGCCCGCAGCGCCGGGCCGCGGGGGAGGCGGGAACTGGTGCTACGGCCGCTACGCTTTCACTGGGATCGTGGGGAC,-0.0397 ratio

# Study 2
# Target: RING finger protein unkempt homolog, zinc fingers 1-6, GST-SBP tag (UNK, Homo sapiens, UniProt Q9C0B0, residues 30-357)
# Technique: RNA Bind-n-Seq
# Molecule type: RNA
# Matrix: in vitro
# Tested at: not given
# Setting: RNA with constant flanks, human-mouse chimeric sites, ends assumed
# Reference: input RNA pool
# Reading: higher = stronger binding
# Construct (chain): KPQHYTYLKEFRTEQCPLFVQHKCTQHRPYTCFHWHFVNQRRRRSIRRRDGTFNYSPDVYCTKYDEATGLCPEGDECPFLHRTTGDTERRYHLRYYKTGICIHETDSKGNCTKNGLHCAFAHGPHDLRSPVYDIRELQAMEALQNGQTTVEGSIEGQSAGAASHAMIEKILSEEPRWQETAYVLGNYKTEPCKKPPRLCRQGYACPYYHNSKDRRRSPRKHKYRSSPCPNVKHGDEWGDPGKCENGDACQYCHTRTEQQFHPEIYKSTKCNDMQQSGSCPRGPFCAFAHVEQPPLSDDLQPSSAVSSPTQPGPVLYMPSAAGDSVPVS
Strand,bound/input enrichment [ratio]
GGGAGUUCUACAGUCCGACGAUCUUACCCGAAAAUGAAGAUGAGCUGGAGAGCACCAACAGGCGCUACACCAAGAGGGACUGCAGCACUUUCCUCAGAACUAGUGAGACGGGCAUCGUGGACCAGGUCAUGGUAACUCUCAACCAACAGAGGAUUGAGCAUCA,0.148
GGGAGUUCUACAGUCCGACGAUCCUGUGACUGAUGGCAGCUACCUGAGUGGCAGCUGAAGUUGACUCCCUCUCCUUGCCUGAACCCCCCCCCACUGCCCCUUGAGUCCACAGUGUCGGCUGAGAUGUUGCCUCUGCACGGUUCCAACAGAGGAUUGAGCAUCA,0.509
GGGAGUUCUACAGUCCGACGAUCCUGUGUGUGCUGAAUAAAUGGCUUGUAAAGAAGUUUUUCCAAGCUGUAACCCAUGCUGUUAUUAUAGUUGCUGCAAAAUGUCUCUUAUGAUAUUGAUUUUAUUUGUUAACUGAAGGUCUCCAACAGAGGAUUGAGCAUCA,0.425
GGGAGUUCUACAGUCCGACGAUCGCAAAGGAUGAUGAGGCGGCAGCUGUUGCACUUUCCUCUCUCGUUCAUGCUUUGGAUGAGUUAAACAUGGUCGCCAUCGUCCGAUAUGCUUAUGACAAAAGAGCUAAUCCUCAAGUUGGUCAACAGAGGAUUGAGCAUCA,0.138
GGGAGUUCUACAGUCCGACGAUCUCAGAAGCUGUGCUGGGUCACUUUUCAUAUCCAGAUCCUUCACAGUGGACAGAUGAAGAACUGGGAAUCCCUCCUGAUGACGAGGACUGACACUGUAAACUCUCUGGACGAGUAGGAGCACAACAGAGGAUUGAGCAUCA,0.886
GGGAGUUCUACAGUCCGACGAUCACUCAGAGAUCCACCUCCCAAAGUGCUGGGAGUAAAGGUGUGGCCACUCAAUUCUCCUUGAUGGAUAUAUAUUUUUUUUAAUAUGAAUGAACUCUUGCGUCCAGGGAAGAAAGAUUUGUUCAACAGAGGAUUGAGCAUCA,0.307
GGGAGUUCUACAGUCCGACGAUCAGGAGGAGAUUAAAGGGUGAGAGUGGGGUGGAAGACUGUGUCAUGGCUCUGGAGACACUGUUCAGUGUCCUGCUUUCUCUGUGCAGACUUAUGGCUCCUUACACGCCCUUUCUGACUGAGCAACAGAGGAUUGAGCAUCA,0.0624
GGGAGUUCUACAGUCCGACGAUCAAAGUGAUGACUAUGUUUGUCCAACGACAGGUAUUUUCGGAGAGCAAAGAUGAGAUUGCUUUAGUCCUGUUUGGUACAGAUGGCACUGAUAAUGCCCUUGCUGGCAAGGACCAGUAUCAGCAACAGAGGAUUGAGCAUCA,0.126

# Study 3
# Target: RNA binding protein fox-1 homolog 2, RRM domain, GST-SBP tag (RBFOX2, Homo sapiens, UniProt O43251-10, residues 100-194)
# Technique: RNA Bind-n-Seq
# Molecule type: RNA
# Matrix: in vitro
# Tested at: 365 nM
# Setting: natural RNA segment, single round, ends assumed
# Reference: no-protein control
# Reading: higher = stronger binding
# Target sequence (chain): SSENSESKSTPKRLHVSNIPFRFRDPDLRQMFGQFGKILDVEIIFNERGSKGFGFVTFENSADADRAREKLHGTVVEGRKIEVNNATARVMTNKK
Strand,RBNS enrichment (R)
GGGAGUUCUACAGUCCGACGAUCGGUGGUAUGGCCAUAGACCAGAGCAACACAUUGAAAUGUAUACAGAUGUACUAGCUAAAGUCUCUUUAUGUGUCAGUAUUAAGAGUAAUAUGUAGCCAGAUUACUUAAAUUGGAAUUCUCGGGUGCCAA,0.613
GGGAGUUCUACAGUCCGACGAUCAGUUUUCUGCUGGAUCUGGUGGGAAGGCAGCUCGGUAAAGUUUCCCUCCUGCUCCCCCCGCCCGACUUUGACUCUGAAUCAGCAUUUGGUCCUAUUCAGAGGACUCUUACUGGAAUUCUCGGGUGCCAA,0.358
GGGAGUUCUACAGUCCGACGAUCAUUUUGAAUUGAGUGAAGUGCAAUUUCAUUGGAUAGCUAAGUAUCUUUGUAAGAUAGAGAUUGUUGAAAAUUCUAUUUUUGUUUUUCAAGUCCUCCCACCCCAGGACUCUUGGAAUUCUCGGGUGCCAA,0.496
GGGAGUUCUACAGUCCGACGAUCAUGAAAAAGCCCAUCUCCUGUGUCCCCAUUGCUCCUUCCCCUUAGCCUCGACAUUUCAAGUUGCGGUGUGUGACGGAGGUGGCUGCCGAACGAGAAGAGAUGCCACAGUGUGGAAUUCUCGGGUGCCAA,0.34
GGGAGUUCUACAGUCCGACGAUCGUGCUUACUAACAAAAUGUGAAAAGCAAGACCCAGGUGUCUCAUGUGGUGGCAGCACAGUGGCAGGCCAGUGGUCAACUUAGGGCAUCUUUUCUCUGCCACGGCAGCGCAUGGAAUUCUCGGGUGCCAA,1.19
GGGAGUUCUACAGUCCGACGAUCCAACCCUUUUUCAGUAACUUAUGUUCACCAGUCUGUGCUUUUCUUCUCCCAGAAGGCUUUUCUUAGUGGUUGUAAAUGCAAGAAUCCUGAGCCCUGUGUUGCAAAGGUGGUGGAAUUCUCGGGUGCCAA,0.529
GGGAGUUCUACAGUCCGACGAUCAGUUCGUUGAGACUUAGUGACCAUUUGGCAUCAAGUUAACAUCACACAAUAGGAAACACCACUUCCACAAGUCUCAAGCCUCAGUGCUAAAGUACUACUGAAAAGGAACUUGGAAUUCUCGGGUGCCAA,0.219
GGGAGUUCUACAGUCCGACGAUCCAUUCAUUGAUUUGCGUAUAUUGAACCAGCCUUGCAUCCCAGGGAUGAAGCCCACUUGAUCAUGGUGGAUAAGCUUUUUGAUGUGCUGCUGGAUUCGUUUUGCCAGUAUUUGGAAUUCUCGGGUGCCAA,0.492
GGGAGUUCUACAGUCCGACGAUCUAAUUUUCUGUAUAUUUGGAAUAUUUGGGUUAAAAAUAAAACAGACUGGACUUUGUUACCUGACCUAUGAAAUGACUAAGCUACAGUUUGUUGAUAUACUUUUUCCAGUUUGGAAUUCUCGGGUGCCAA,0.671

# Study 4
# Target: Ras GTPase-activating protein-binding protein 1, full length (G3BP1, Homo sapiens, UniProt Q13283)
# Sequence of UniProt Q13283 (whole entry, looked up): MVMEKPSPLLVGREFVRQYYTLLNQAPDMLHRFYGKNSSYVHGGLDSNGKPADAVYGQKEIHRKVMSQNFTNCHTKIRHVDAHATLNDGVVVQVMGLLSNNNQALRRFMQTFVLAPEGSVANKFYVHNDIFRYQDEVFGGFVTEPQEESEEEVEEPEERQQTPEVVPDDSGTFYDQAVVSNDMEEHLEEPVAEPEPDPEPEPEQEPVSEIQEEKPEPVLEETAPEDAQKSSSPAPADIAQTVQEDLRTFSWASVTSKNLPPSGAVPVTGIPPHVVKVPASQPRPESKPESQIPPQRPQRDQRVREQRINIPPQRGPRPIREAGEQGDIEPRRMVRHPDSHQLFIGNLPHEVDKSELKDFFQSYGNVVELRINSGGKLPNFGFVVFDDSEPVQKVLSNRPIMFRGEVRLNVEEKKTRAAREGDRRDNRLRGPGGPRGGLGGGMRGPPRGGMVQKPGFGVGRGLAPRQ
# Technique: RNA Bind-n-Seq
# Molecule type: RNA
# Matrix: in vitro
# Tested at: 200 nM
# Setting: whole 134-nt RNA, ends assumed
# With: 150 mM KCl
# Reference: input library
# Reading: higher = stronger binding
Strand,log2 enrichment
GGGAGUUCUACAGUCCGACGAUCCCUCAAGUCCUGUGCUACACAUCGUAUGUACCGAAUCGGUUGGGUUGGGUUGGAAAGUAUUAUGUUACGCCGUUCGGAUCUGCACUUCCAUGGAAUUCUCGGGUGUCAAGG,-0.283
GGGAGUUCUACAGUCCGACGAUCCUCAAGUCCUGUGCUACACAUCGUAUGUACCGAAUCGGGGAAGGGAAGGGAAGGAAAGUAUUAUGUUACGCCGUUCGGAUCUGCACUUCCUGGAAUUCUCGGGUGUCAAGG,-0.00868
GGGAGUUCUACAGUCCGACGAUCACCAUGCAGGUGGGCAUCUUUGGGAAGUGCGGCAAGGGGGGGAUAGGGAGGGGGGUAACACUUUGGGAACAGGUGGUCCCAGGUCGUUUCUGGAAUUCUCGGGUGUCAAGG,1.69
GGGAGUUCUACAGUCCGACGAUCUCCUGUGCUACACAUCGUAUGUACCGAAUCGGGGUUUGGGGAAAAAGGGGAAAAAGGGGAAAGUAUUAUGUUACGCCGUUCGGAUCUGCAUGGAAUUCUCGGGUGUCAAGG,0.71
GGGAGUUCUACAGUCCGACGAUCGCAGGAAGUAAAAACAAAUGGAAAUGCUUCGGAUAGUGGCAGGGGUAAAGGUUGCUAAGGAAAGGGUGGGAUGGGAGUGGGUAAAGAGUUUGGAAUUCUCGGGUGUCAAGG,0.936
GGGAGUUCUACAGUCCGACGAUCGACUCUGAAGAAGAAGCUAUGGAGACUACACCAGCCAAAGGAAAGAAAGCUGCAAAAGUUGUUCCUGUGAAAGCCAAGAACGUGGCUGAGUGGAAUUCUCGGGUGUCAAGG,-1.61
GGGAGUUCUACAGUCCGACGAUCUGGGAGGUGGAUUUUGUUUAUUUUUUUAGCUCAUUUCCAGGGGUGGGAAUUUUUUGUUAAUAUGUGUCAUGAAUAAAGUUGUUUUUGAAAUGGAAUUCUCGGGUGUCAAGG,0.225
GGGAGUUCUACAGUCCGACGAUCUGUGAACUUGUAUGUGAAGAAUCUGGACGACUCCAUUGAUGACGACAAACUGAGGAAAGAGUUCUCUCCCUAUGGAGUAAUUACCAGUGCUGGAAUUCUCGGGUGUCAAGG,0.385
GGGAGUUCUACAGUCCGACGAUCACCAUGGAGGUGGGCAUCUUUGGGAAGUGGGGCAAGGGGGGGAUAGGGAGGGGGGUAACACUUUGGGAACAGGUGGUCCCAGGUCGUUUCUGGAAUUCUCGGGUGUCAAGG,1.23
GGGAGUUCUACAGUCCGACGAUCUGGGAGGUGGAUUUUUUUUAUUUUUUUAGCUCAUUUCCAGGGGUGGGAAUUUUUUUUUAAUAUGUGUCAUGAAUAAAGUUGUUUUUGAAAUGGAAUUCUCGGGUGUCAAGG,0.414

# Excerpt of the above (study 4):
Strand,log2 enrichment
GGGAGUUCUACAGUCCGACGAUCACCAUGGAGGUGGGCAUCUUUGGGAAGUGGGGCAAGGGGGGGAUAGGGAGGGGGGUAACACUUUGGGAACAGGUGGUCCCAGGUCGUUUCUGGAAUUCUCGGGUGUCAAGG,1.23
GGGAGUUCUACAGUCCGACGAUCUCCUGUGCUACACAUCGUAUGUACCGAAUCGGGGUUUGGGGAAAAAGGGGAAAAAGGGGAAAGUAUUAUGUUACGCCGUUCGGAUCUGCAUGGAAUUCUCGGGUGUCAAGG,0.71
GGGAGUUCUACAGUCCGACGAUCCCUCAAGUCCUGUGCUACACAUCGUAUGUACCGAAUCGGUUGGGUUGGGUUGGAAAGUAUUAUGUUACGCCGUUCGGAUCUGCACUUCCAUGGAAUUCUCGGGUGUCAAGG,-0.283
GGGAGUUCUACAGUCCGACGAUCUGGGAGGUGGAUUUUGUUUAUUUUUUUAGCUCAUUUCCAGGGGUGGGAAUUUUUUGUUAAUAUGUGUCAUGAAUAAAGUUGUUUUUGAAAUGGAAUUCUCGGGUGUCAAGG,0.225
